Experimental data pooled from the literature.
Parts stem from different laboratories: compare values within a part only. Positions count from the first letter of the parent shown.

Set 1
Target: NFE2L3, bZIP domain (human)
Technique: DHFR protein complementation
Matrix: yeast
Notes: single substitutions, most at no-binding floor
Reference: wild-type JUN-FOS pair
Direction: higher = stronger binding
Starting sequence: JUN, bZIP domain (human); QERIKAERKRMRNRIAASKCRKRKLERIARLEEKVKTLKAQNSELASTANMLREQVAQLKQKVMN; partner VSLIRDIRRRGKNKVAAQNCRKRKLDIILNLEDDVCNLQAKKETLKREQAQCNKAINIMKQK
Change	binding fitness [natural log]
Q55H	-1.46
M51P	-1.56
A57T	-1.37
E33D	-1.15
Q55A	-1.44
K39Y	-1.61
L31S	-1.51
Q58P	-1.5
Q41I	-1.49
K34E	-1.46
L31M	-1.43
A29L	-1.43
K34R	-1.28
N42M	-1.47
T37I	-1.46
S47H	-1.54
L45Q	-1.54
A40Q	-1.52
A49W	-1.49
R53S	-1.51
Q41V	-1.42

Set 2
Target: RNA binding protein fox-1 homolog 2, RRM domain, GST-SBP tag (RBFOX2, Homo sapiens, UniProt O43251-10, residues 100-194)
Technique: RNA Bind-n-Seq
Form: RNA
Matrix: in vitro
Tested at: 365 nM
Notes: natural RNA segment, single round, ends assumed
Reference: no-protein control
Direction: higher = stronger binding
Constant ends, left off below: GGGAGUUCUACAGUCCGACGAUC … UGGAAUUCUCGGGUGCCAA
Construct (chain): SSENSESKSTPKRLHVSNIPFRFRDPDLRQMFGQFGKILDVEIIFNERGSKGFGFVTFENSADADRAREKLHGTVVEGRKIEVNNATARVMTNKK
Strand	RBNS enrichment (R)
GUUGAUGAGGACCCAGAGCUGCUGCACACACUCACCUCUAACCCCCUCCCCUCGCUGCUGGGCCCCAUCUCCACAGGAGAGACUGGUUCAGCUCUAGGGCCUCAGUCUGG	0.818
GUGGAGGAACUGUGCCUCCAUCCCCAGAAGAAACAGCCCCCUCUGCUGCUGGGGUGGGACUGUCUGUGUGCCCUGUGGGGGUCCGUGUGAGCAGGCCCACCUGGCUCCAG	0.294
UUCUAACUGUCCGACAGGCUCCCAGUCUCUGUGUGUCCAGGCCAGAGGACCAGCACUCAGGAGAGUCUGCCUUUGGAUUGAGUUCCCAAAUUAGAGUCAUCGCACCAGGG	0.28
UGAAUCUCCAGCAGGAGGGUCCUUCUCUCCCUGGCCCGUCCUCCUCCCACCCCCUCCCCCUGGGGGCAAAUCAGGACACAACAGAGGGCAGAGGCCCCAUUAGCUUUAAA	0.276
CCUUUGCAGCUAGGGAAAGAGAAGAACACUAAGGAGAUGGAGAACUAAGGUCAGAGUAGCAGUCUCCAGUCUUACAUUUUGGUCUCUUUCCUCCUAUACUUCCUUGUUGC	0.583
CUAGGGCUUCCUGGAAGUUAGUUGCCAAAGUCAUGCAAGCAUCACCUGUCAUUCUUGUGUUGGAGUUAUAGAAUUCUACAUCUUAUAAAACCUAACUGGCAUUUAAAAAA	0.621
AAUAAAUAUGAAGUAAGAUUACAACAGAGCAGAACUUGCACCCACCAUUUUUUUUACCUGAUUUUUGUUUUCAAAUAAGAAUGUAAGCAUUUUACUUAAAUUUUACUGUU	0.948
GUCCUGAGCUUCCUCUAGCUCACUCUAGAAGUAAUGGUCUAAUCAAAGGUCGUCUGUCUGCUUUUGAUUGUCUACAUCACAGCAAUCCCUGGGAAUUUCUAUCCAUUUUA	0.335

Set 3
Target: Centromere-binding protein 1, full length, N-terminal tag (CBF1, Saccharomyces cerevisiae, UniProt P17106, residues 1-351)
Sequence of UniProt P17106 (whole entry, looked up): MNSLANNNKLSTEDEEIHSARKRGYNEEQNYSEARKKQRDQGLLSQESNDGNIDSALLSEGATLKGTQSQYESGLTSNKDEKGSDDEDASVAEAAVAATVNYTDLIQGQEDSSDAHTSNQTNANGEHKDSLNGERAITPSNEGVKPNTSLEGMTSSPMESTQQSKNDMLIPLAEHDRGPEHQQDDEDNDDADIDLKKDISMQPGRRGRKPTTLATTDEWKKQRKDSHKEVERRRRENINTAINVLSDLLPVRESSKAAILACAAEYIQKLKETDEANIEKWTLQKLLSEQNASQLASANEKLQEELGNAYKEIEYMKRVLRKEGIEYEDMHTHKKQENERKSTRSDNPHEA
Technique: protein-binding microarray
Form: double-stranded DNA, one strand shown
Matrix: in vitro
Tested at: 0.8 µM
Notes: whole 60-bp probe, no competitor
Direction: higher = stronger binding
Constant ends, left off below: … GTCTTGATTCGCTTGACGCTGCTG
Strand	fluorescence intensity
CTAACCATAGGTAAGCACGTGATTATGGAAGGATTC	18400 a.u.
TGTACGAAGCTATAGAACGTGTATATAGTAGTTAGG	570 a.u.
GAAATGCGCATTAGCCACGTCCATCCCTTTCCCTAG	496 a.u.
CTATTCTACCCCTTCAGCGTGAAAAATCACCATTTC	530 a.u.
GAATTTAACTTAAACCCCGTGTTTAGCGAAATTTAG	823 a.u.
GAAAAGAACTGCTGTGGTGTCATGATAGACGAATAG	634 a.u.
CTACACCAGCGCCACCACGGGGACCCGCCCCGATTC	489 a.u.
GAATAGTATGACTACTACGTGATGGTCGATAGTTAG	586 a.u.
CTATTTAAGTCATTAAACGTGTCTACTATTTAATTC	590 a.u.
GAAATTTTGCTACCCCACGTCACCAATGCACTATAG	552 a.u.
CTAAATTATTATTATCACGTTTCACGGATTATTTTC	2110 a.u.
GAAACACATGAATGTGACGTTTCCTAAAAGAAGTAG	584 a.u.
CTATATATATGCGGCTGCGTGCGTGTATTCTCCTTC	555 a.u.
GAACGAAATTTTCATCACGCTGTAGGACGCAAATAG	930 a.u.
CTAAGAGTTGTACATCAGGTAAGAATGTTATTATTC	503 a.u.
GAAACATATATTAACCACATGAAGGCACTTGCATAG	575 a.u.
CTACTTACTCAAGGTGACACAATCGTTACGACATTC	564 a.u.
GAACTGGGTACACCACTCGTGCGTCCCTTGGAGTAG	497 a.u.
CTATAACCACCCCCGGTCGTGACTTTTTAGATTTTC	533 a.u.

Set 4
Target: Ras GTPase-activating protein-binding protein 1, C-terminal RGG region (G3BP1, Homo sapiens, UniProt Q13283)
Sequence of UniProt Q13283 (whole entry, looked up): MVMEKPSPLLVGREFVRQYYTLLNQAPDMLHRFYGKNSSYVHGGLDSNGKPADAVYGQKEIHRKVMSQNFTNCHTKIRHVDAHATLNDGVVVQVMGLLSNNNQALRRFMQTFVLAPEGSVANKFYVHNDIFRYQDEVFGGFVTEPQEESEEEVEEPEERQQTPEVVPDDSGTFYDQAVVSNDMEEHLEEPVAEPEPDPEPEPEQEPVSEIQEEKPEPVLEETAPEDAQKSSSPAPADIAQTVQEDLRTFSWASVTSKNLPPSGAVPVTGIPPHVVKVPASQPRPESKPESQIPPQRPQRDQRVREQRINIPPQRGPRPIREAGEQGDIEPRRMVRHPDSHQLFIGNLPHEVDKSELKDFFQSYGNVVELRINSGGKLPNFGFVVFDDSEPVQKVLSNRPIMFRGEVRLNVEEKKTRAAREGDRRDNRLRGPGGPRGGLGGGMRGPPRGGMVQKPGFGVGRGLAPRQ
Technique: RNA Bind-n-Seq
Form: RNA
Matrix: in vitro
Tested at: 1 µM
Notes: whole 134-nt RNA, ends assumed
With: 150 mM KCl
Reference: input library
Direction: higher = stronger binding
Constant ends, left off below: GGGAGUUCUACAGUCCGACGAUC … UGGAAUUCUCGGGUGUCAAGG
Strand	log2 enrichment
AGUCCUGUGCUACACAUCGUAUGUACCGAAUCGGGUUUGGGAAAAAGGGAAAAAGGGAAAGUAUUAUGUUACGCCGUUCGGAUCUGCACU	0.893
UGUGGAGGAGACGGCCGACUCGACGCUGUGCCACAUCCUGAACCUGUACCGGCGGGCCACCUGGCUGCACCAGGCGCUGCGGGAGGGCAC	-0.769
GCAGGAAGUAAAAACAAAUGGAAAUGCUUGGGAUAGUGGCAGGGGUGGGGGUUGCUAAGGAAAGGGUGGGAUGGGAGUGGGUAAAGAGUU	1.83
UCAAGUCCUGUGCUACACAUCGUAUGUACCGAAUCGGAGGUUUGGUUUUUUUGGAAAGUAUUAUGUUACGCCGUUCGGAUCUGCACUUCC	-1.15
CACAGACAACACGCACCCACACAGACACAGAGGGAAGUGGUUGGGAUGGGGACAGGGUGCACAGCAGGGCGGGGUAGGACCCCAGCCCCU	-0.423
CCUGUGCUACACAUCGUAUGUACCGAAUCGGGUUUUUUUGGGUUUUUGGGAAAAAAAGGGAAAGUAUUAUGUUACGCCGUUCGGAUCUGC	-1.83
UGGCCCUGGUGGCAUGCGGGGAGGAAGAGGUGGCCUCAUGGAUGGUGGUGGUCCCGGUGGAAUGUUCAGAGGUGGCCGUGGUGGAGACAG	2.4
CUGUGCUACACAUCGUAUGUACCGAAUCGGGGAAAAAAAGGGAAAAAAAGGAAAAAAAGGGAAAGUAUUAUGUUACGCCGUUCGGAUCUG	-1.65
UGGCCCUGGUGGCAUGCGGGGAGGAAGAGGUGGCCUCAUGGAUCGUGGUGGUCCCGGAGGAAUGUUCAGAGGUGGCCGUGGUGGAGACAG	1.75

Excerpt of the above (set 2):
Strand	RBNS enrichment (R)
AAUAAAUAUGAAGUAAGAUUACAACAGAGCAGAACUUGCACCCACCAUUUUUUUUACCUGAUUUUUGUUUUCAAAUAAGAAUGUAAGCAUUUUACUUAAAUUUUACUGUU	0.948
GUCCUGAGCUUCCUCUAGCUCACUCUAGAAGUAAUGGUCUAAUCAAAGGUCGUCUGUCUGCUUUUGAUUGUCUACAUCACAGCAAUCCCUGGGAAUUUCUAUCCAUUUUA	0.335
UGAAUCUCCAGCAGGAGGGUCCUUCUCUCCCUGGCCCGUCCUCCUCCCACCCCCUCCCCCUGGGGGCAAAUCAGGACACAACAGAGGGCAGAGGCCCCAUUAGCUUUAAA	0.276
CCUUUGCAGCUAGGGAAAGAGAAGAACACUAAGGAGAUGGAGAACUAAGGUCAGAGUAGCAGUCUCCAGUCUUACAUUUUGGUCUCUUUCCUCCUAUACUUCCUUGUUGC	0.583
UUCUAACUGUCCGACAGGCUCCCAGUCUCUGUGUGUCCAGGCCAGAGGACCAGCACUCAGGAGAGUCUGCCUUUGGAUUGAGUUCCCAAAUUAGAGUCAUCGCACCAGGG	0.28
